Measured values collected from several papers.
Lines come from different studies, so protocols differ. Several values in a cell are separate wells, animals, samples, runs or records. ± marks the error that the study gave.
Nuclear receptor subfamily 2 group C member 2 ligand-binding domain: Nuclear receptor subfamily 2 group C member 2, ligand-binding domain (Homo sapiens, UniProt P49116)
Chain of UniProt P49116 (whole entry, looked up): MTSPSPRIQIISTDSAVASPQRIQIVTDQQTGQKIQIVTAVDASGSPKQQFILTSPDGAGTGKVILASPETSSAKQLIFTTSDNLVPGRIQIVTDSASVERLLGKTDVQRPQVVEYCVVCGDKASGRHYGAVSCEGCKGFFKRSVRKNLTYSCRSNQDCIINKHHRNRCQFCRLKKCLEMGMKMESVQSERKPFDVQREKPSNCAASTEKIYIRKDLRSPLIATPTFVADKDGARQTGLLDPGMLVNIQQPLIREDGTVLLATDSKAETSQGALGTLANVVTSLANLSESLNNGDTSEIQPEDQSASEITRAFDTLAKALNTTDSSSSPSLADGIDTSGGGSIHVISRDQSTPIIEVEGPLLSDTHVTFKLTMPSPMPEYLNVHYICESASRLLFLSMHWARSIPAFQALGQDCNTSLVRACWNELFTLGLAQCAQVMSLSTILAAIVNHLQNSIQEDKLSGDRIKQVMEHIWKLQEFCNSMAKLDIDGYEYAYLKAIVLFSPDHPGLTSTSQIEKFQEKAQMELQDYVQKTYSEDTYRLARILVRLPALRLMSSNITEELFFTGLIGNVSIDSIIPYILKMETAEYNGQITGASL

| SMILES | target or system | assay | system | conditions | scale | quantity | value |
| --- | --- | --- | --- | --- | --- | --- | --- |
| C[C@H](CCC(C)(C)O)[C@H]1CC[C@H]2[C@@H]3CC=C4C[C@@H](O)CC[C@]4(C)[C@H]3CC[C@]12C | NMDA receptor rat | NMDA current potentiation, potentiator, whole-cell recording | rat cultured hippocampal neurons | with: NMDA 10 µM |  | EC50 | 62.8 nM |
| N#Cc1ccn2c(-c3ccncc3)c(-c3ccc(F)cc3)nc2c1 | orf19.4575 kinase Candida albicans | MIB/MS competition binding | Candida albicans cell lysate | 1 µM | relative to: DMSO, lower = stronger binding | log2 fold change | 0.0709 |
| c1coc(-c2n[nH]cc2-c2ccnc3ccccc23)c1 | STE11 (Candida albicans) | kinase binding, MIB/MS competition | Candida albicans lysate | 10 µM | relative to: DMSO | log2 fold change | 0.01 |
| CC(Nc1nc(N2CCCC2)nc2ccccc12)c1ccccc1 (stereo not drawn) | importin α/β1 | cMyc nuclear import, high content imaging | HeLa Kyoto reporter | 1 µM, 2 h |  | cells with nuclear reporter | 84.3% and 98.6% |
| Cc1n[nH]c2ccc(-c3cc(OC[C@@H](N)Cc4ccccc4)cnc3-c3ccoc3)cc12 | orf19.4575 kinase Candida albicans | MIB/MS competition binding | Candida albicans cell lysate | 1 µM | relative to: DMSO, lower = stronger binding | log2 fold change | -0.272 |
| NCCCOc1cc(NC(=O)c2cc(OCc3c[nH]nn3)cc(C(=O)Nc3cc(OCCCN)c4ccccc4n3)n2)nc2ccccc12 | double-stranded DNA | FRET melting |  | 1 µM, pH 7.4, 60 mM potassium, with: oligonucleotide 200 nM |  | delta Tm | 0 ± 0.1 K |
| CCCCCCCCCCCCCCCc1cccc(O)c1C(=O)O | OCI-Ly1 |  |  | 0.1 µM, 120 h |  | viability | 177% |
| COc1cc(Nc2ncc3c(n2)-c2ccc(Cl)cc2C(c2c(F)cccc2OC)=NC3)ccc1C(=O)NCCOCCOCCNC(=O)COc1cccc2c1C(=O)N(C1CCC(=O)NC1=O)C2=O (stereo not drawn) | human CSNK2A1/CSNK2A3 | binding, kinobead competition | MV4-11 cell lysate |  |  | EC50 | > 30000 nM |
| CN(C)CCCOc1cc(NC(=O)c2cccc(C(=O)Nc3cc(OCCCN(C)C)c4ccccc4n3)n2)nc2ccccc12 | double-stranded DNA | FRET melting |  | 1 µM, pH 7.4, 60 mM potassium, with: oligonucleotide 200 nM |  | delta Tm | 0.8 ± 0.3 K |
| CN(C)CCCn1c(=O)c2ccc3c(=O)n(CCCN(C)C)c(=O)c4c5[nH]c6cc(C(=O)O)ccc6[nH]c5c(c1=O)c2c34 | double-stranded DNA | FRET melting |  | 0.25 µM, K+ 100 mM |  | ΔTm | 1.8 ± 0.6 °C |
| c1ccc(-c2n[nH]cc2-c2ccnc3ccccc23)nc1 | orf19.4575 kinase Candida albicans | MIB/MS competition binding | Candida albicans cell lysate | 100 nM | relative to: DMSO, lower = stronger binding | log2 fold change | 1.35 |
| CC[C@@H](C(=O)Nc1ccc(C(N)=O)c(F)c1)n1cc(OC)c(-c2cc(Cl)ccc2-n2cc(C(F)(F)F)nn2)cc1=O | human chymotrypsin | enzyme activity |  |  |  | IC50 | > 10000 nM |
| CN(C)CCCn1c(=O)c2cc(Br)c3c(=O)n(CCCN(C)C)c(=O)c4c5[nH]c6ncccc6[nH]c5c(c1=O)c2c34 | double-stranded DNA | FRET melting |  | 0.25 µM, K+ 100 mM |  | ΔTm | 1.1 ± 0.6 °C |
| NCCOc1cc(C(=O)Nc2cc(OCCN3CCCC3)c3ccccc3n2)nc(C(=O)Nc2cc(OCCN3CCCC3)c3ccccc3n2)c1 | double-stranded DNA | FRET melting |  | 1 µM, pH 7.4, 60 mM potassium, with: oligonucleotide 200 nM |  | delta Tm | 0.4 ± 0.1 K |
| COc1ccc(CNc2c(CO)cnc3c(C4CC4)cc(C#N)cc23)cn1 | PDE1 | enzyme activity |  |  |  | IC50 | > 10000 nM |
| C[C@@H]1CCN(c2nccc(-c3cnn4ncccc34)n2)C1 | human kinase panel | KINOMEscan |  | concentration not given | relative to: control | remaining binding | 100% and 85% and 67% and 76% |
| Oc1ccccc1-c1n[nH]cc1-c1ccnc2ccccc12 | KIN28 (Candida albicans) | kinase binding, MIB/MS competition | Candida albicans lysate | 1 µM | relative to: DMSO | log2 fold change | 0.1 |

| SMILES | target or system | assay | system | conditions | scale | quantity | value |
| --- | --- | --- | --- | --- | --- | --- | --- |
| CC(C)c1nc(CN(C)C(=O)N[C@H](C(=O)N[C@@H](Cc2ccccc2)C[C@H](O)[C@H](Cc2ccccc2)NC(=O)OCc2cncs2)C(C)C)cs1 | HIV-1 | viral replication | human immunodeficiency virus 1 |  |  | IC90 | 76.7 nM |
| NCCOc1cc(NC(=O)c2cc(OCc3c[nH]nn3)cc(C(=O)Nc3cc(OCCN)c4ccccc4n3)n2)nc2ccccc12 | human telomeric G-quadruplex DNA | FRET melting |  | 1 µM, pH 7.4, with: 60 mM potassium |  | ΔTm | 10.1 ± 0.6 K |
| C=CC[C@@H]1/C=C(\C)C[C@H](C)C[C@H](OC)[C@H]2O[C@@](O)(C(=O)C(=O)N3CCCC[C@H]3C(=O)O[C@H](/C(C)=C/[C@@H]3CC[C@@H](O)[C@H](OC)C3)[C@H](C)[C@@H](O)CC1=O)[C@H](C)C[C@@H]2OC | Nuclear receptor subfamily 2 group C member 2 ligand-binding domain | SPR imaging |  |  |  | Kd | 15.6 nM |
| Nc1nc2c(nc(Br)n2[C@@H]2O[C@@H]3COP(=O)(O)O[C@H]3[C@H]2O)c(=O)[nH]1 | cone CNG channel |  | striped bass (Morone saxatilis), cone outer segment | 15 µM, -35 mV |  | steady-state current | -46 ± 17 pA |
| NCCCOc1cc(NC(=O)c2cc(Cl)cc(C(=O)Nc3cc(OCCCN)c4ccccc4n3)n2)nc2ccccc12 | c-kit2 G-quadruplex DNA | FRET melting |  | 1 µM, pH 7.4, with: 60 mM potassium |  | ΔTm | 17.3 ± 0.3 K |
| CC1=NN(c2ccc(C(=O)O)cc2)C(=O)/C1=C\c1ccc(-c2cc(C)c(C)cc2[N+](=O)[O-])o1 | OCI-Ly1 |  |  | 0.5 µM, 120 h |  | viability | 79.4% |
| C#CCOc1cc(C(=O)Nc2cc(OCCN)c3ccccc3n2)nc(C(=O)Nc2cc(OCCN)c3ccccc3n2)c1 | c-kit2 G-quadruplex DNA | FRET melting |  | 1 µM, pH 7.4, with: 60 mM potassium |  | ΔTm | 11.5 ± 1 K |
| Cc1cnn2ncc(-c3ccnc(N(C)C)n3)c2c1 | human kinase panel | KINOMEscan |  | concentration not given | relative to: control | remaining binding | 100% and 87% and 95% and 83% |
| CCN1CCN(Cc2ccc(NC(=O)c3ccc(C)c(/C=C/c4cnc5[nH]ccc5c4OC)c3)cc2)CC1 | ABL/ARG kinases (human) | KiNativ profiling | Huh-7 cell lysate | 1.0 µM |  | inhibition | > 80% |
| Cc1nnc(NS(=O)(=O)c2ccc(N)cc2)s1 | Nuclear receptor subfamily 2 group C member 2 ligand-binding domain | SPR imaging |  |  |  | Kd | 0.0552 nM |
| CC[C@@H]1[C@H](F)C(=O)N[C@@H]1COc1nccc2cc(C(N)=O)c(OC)cc12 | Aurora A, B, C kinases | ATP-site binding, ActivX kinase profiling | THP-1 cell lysate | ATP-loop probe peptide |  | IC50 | 2800 nM |
| NCCOc1cc(NC(=O)c2cccc(C(=O)Nc3cc(OCCN)c4ccccc4n3)n2)nc2ccccc12 | double-stranded DNA | FRET melting |  | 1 µM, pH 7.4, 60 mM potassium, with: oligonucleotide 200 nM |  | delta Tm | 0 ± 0.1 K |
| Cl.OCCNc1nc(Nc2ccccc2)nc2ccccc12 | Trypanosoma cruzi ribosome | translation, refers to: Renilla luciferase | Trypanosoma cruzi extract | 40 µM |  | inhibition | 77.8% |
| Cc1ccc(C(=O)NCc2ccsc2)cc1C#Cc1cn(C(C)C)c2ncnc(N)c12 | myosin light chain kinase (human) | enzyme activity |  | 1 µM, with: ATP at Km |  | remaining activity | 99% |
| O=C(Nc1cc(OCCN2CCCC2)c2ccccc2n1)c1cc(OCCN2CCCC2)cc(C(=O)Nc2cc(OCCN3CCCC3)c3ccccc3n2)n1 | double-stranded DNA | FRET melting |  | 1 µM, pH 7.4, 60 mM potassium, with: oligonucleotide 200 nM |  | delta Tm | 0.9 ± 0.2 K |
| Cc1cc(C#N)cc(C)c1Oc1nc(Nc2ccc(C#N)cc2)nc(N)c1Br | HIV-1 | viral replication | human immunodeficiency virus 1 |  |  | IC90 | 6.07 nM |
